Experimental data of several laboratories.
Parts stem from different laboratories: compare values within a part only.

Set 1 — technique: protein binding microarray; molecule type: double-stranded DNA, one strand shown; sample: in vitro; concentration: not given; relative to: not given; reading: higher = stronger binding
Target: Histone acetyltransferase KAT6A, winged helix 1, GST fusion (KAT6A, Homo sapiens, UniProt Q92794, residues 1-85)
Setting: 8-mer, flanks averaged, mean of 2 arrays, mostly near background
Construct (chain): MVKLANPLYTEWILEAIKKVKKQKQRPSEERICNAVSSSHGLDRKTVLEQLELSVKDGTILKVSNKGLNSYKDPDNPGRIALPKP
`ACGTTTCA` has an E-score of -0.107.
The E-score of `CACCGCGC` is reported as 0.444.
`GTGATCTA` has an E-score of -0.141.
`GCATGCAC` gave an E-score of 0.107.
`AGATTAAT` gave an E-score of -0.0588.
`AGTCCGAT` has an E-score of -0.0281.
`ACATGGGG` has an E-score of -0.0135.
`GGCATAAA` gave an E-score of 0.0434.

Set 2 — technique: RNA Bind-n-Seq; molecule type: RNA; sample: in vitro; concentration: 20 nM; setting: 6-mer, flanks averaged, single round; together with: 150 mM LiCl; relative to: input library; reading: higher = stronger binding
Target: TAR DNA-binding protein 43, full length, His tag (TARDBP, Homo sapiens, UniProt Q13148, residues 1-414)
`AUCAUA` — result for “6-mer enrichment (R)”: 0.846.
`UACAAU` — result for “6-mer enrichment (R)”: 0.904.
`GACUGA`: “6-mer enrichment (R)” 0.947.
`ACCCCA` — result for “6-mer enrichment (R)”: 1.03.
For `UGGGGG`, “6-mer enrichment (R)” read 1.57.
`CGGGGU` — result for “6-mer enrichment (R)”: 1.14.
`CGGCUC` — result for “6-mer enrichment (R)”: 0.886.
For `AAUACU`, “6-mer enrichment (R)” read 0.856.

Set 3 — technique: universal PBM; molecule type: double-stranded DNA, one strand shown; sample: in vitro; concentration: not given; reading: higher = stronger binding
Target: Sal-like protein 4, full length isoform B (SALL4, Homo sapiens, UniProt Q9UJQ4-2, residues 1-616)
Setting: 8-mer, flanks averaged, mean of replicates
With `AGTAGTGA` the E-score was 0.189.
The E-score of `AAACAGAC` is reported as 0.0817.
The E-score of `GAGCTCCC` is reported as -0.318.
For `CAGGTTAG`, the E-score was -0.214.
With `ACGCGAAA` the E-score was 0.0357.
For `ATAGTTAA`, the E-score was 0.283.
`GTTTCGTA` gave an E-score of 0.132.

Other studies, line by line
`PhoQ, residues 284 288 289 292 302 303 NLALSC` has a fold induction of 4.64 (PhoP, residues 12 14 15 18 19 NQGLL (Escherichia coli, UniProt P23836); Sort-seq, refers to: YFP reporter; E. coli; PhoQ-PhoP variant library, together with: 10 µM Mg2+; relative to: high Mg2+ state, higher = stronger signaling).

A few entries again (set 1):
`ACATGGGG` has an E-score of -0.0135.
`GTGATCTA` has an E-score of -0.141.
